Experimental data of several laboratories.
Each numbered part is a random draw from the data of one study; scales do not carry over between parts. Values joined by “and” are separate records of one study, mostly repeats; a detail may differ.
Sequence of UniProt P45985 (whole entry, looked up): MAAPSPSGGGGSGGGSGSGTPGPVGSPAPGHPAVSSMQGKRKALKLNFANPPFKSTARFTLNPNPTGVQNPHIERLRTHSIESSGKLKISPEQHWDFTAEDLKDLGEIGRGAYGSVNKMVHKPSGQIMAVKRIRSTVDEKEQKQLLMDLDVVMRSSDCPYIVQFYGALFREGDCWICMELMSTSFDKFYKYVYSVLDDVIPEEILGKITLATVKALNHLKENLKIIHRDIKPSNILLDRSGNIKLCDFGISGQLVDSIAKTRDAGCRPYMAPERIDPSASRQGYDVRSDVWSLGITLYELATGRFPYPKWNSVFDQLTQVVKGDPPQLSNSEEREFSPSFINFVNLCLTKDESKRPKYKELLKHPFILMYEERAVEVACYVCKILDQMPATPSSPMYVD
Sequence of UniProt Q92630 (whole entry, looked up): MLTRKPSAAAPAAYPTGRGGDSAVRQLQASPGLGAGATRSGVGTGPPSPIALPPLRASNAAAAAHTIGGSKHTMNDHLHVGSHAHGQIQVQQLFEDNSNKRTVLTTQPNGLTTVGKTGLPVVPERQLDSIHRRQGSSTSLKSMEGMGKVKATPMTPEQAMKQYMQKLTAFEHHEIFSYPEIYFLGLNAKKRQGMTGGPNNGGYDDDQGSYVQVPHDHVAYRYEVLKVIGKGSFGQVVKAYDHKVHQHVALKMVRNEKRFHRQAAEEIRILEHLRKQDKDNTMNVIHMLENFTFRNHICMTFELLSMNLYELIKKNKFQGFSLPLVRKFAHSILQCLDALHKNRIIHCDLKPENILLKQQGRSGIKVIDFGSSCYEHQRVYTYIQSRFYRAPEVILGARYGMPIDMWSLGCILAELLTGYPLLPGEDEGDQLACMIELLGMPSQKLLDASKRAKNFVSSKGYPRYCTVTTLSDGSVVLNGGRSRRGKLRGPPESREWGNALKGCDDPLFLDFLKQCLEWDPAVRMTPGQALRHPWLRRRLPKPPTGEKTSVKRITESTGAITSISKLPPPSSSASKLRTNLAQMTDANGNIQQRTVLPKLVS
Sequence of UniProt Q92918 (whole entry, looked up): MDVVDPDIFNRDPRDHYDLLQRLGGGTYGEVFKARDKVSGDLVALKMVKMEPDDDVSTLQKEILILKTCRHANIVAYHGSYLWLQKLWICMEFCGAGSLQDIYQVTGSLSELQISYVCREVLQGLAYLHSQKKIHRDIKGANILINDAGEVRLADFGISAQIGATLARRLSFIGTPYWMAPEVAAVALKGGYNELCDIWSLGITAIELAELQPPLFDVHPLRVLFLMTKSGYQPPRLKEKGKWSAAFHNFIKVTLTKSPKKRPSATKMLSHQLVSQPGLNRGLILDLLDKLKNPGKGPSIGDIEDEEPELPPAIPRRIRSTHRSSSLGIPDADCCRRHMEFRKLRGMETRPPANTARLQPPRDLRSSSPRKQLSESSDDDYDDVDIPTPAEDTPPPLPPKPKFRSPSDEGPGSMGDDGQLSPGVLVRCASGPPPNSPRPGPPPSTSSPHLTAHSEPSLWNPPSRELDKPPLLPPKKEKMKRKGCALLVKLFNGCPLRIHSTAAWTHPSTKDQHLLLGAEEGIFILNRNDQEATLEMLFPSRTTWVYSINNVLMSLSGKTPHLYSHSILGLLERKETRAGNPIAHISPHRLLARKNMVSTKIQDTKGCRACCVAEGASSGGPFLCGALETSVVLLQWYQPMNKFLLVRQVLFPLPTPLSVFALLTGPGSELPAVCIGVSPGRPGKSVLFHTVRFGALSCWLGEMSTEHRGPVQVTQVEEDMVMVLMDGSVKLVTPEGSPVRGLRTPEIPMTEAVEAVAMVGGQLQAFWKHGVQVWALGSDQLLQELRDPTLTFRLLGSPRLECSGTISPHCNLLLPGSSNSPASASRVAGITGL
Sequence of UniProt O75676 (whole entry, looked up): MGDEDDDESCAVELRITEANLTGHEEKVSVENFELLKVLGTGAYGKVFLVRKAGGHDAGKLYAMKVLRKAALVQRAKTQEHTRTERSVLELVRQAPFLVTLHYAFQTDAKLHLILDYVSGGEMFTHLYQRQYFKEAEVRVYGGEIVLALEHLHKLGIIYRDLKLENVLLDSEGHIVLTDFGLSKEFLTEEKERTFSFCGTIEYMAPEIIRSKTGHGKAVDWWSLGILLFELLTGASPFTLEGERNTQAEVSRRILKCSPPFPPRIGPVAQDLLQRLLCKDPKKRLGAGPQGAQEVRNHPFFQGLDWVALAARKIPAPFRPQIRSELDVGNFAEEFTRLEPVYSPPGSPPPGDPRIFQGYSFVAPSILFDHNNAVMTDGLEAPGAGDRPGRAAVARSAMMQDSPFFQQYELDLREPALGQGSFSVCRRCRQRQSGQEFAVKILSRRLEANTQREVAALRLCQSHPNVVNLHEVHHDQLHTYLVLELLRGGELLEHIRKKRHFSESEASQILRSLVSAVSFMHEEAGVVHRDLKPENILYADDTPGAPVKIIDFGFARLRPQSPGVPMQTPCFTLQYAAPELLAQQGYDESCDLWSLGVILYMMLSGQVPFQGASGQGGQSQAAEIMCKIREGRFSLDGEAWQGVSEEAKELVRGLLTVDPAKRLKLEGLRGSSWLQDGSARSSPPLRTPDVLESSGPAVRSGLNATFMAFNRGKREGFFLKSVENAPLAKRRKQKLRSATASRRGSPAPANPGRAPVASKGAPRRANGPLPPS
Sequence of UniProt Q8WU08 (whole entry, looked up): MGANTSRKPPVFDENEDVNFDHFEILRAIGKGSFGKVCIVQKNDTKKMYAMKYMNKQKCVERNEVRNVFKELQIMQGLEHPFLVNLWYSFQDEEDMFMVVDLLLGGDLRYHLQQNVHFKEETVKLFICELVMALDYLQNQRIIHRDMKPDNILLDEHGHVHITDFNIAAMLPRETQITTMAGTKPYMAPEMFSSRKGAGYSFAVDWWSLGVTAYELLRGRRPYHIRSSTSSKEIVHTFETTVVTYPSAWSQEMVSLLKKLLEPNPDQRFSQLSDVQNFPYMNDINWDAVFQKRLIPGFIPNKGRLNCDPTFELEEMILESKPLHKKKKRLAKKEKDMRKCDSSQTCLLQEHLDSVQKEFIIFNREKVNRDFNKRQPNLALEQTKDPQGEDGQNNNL
Sequence of UniProt Q8NI60 (whole entry, looked up): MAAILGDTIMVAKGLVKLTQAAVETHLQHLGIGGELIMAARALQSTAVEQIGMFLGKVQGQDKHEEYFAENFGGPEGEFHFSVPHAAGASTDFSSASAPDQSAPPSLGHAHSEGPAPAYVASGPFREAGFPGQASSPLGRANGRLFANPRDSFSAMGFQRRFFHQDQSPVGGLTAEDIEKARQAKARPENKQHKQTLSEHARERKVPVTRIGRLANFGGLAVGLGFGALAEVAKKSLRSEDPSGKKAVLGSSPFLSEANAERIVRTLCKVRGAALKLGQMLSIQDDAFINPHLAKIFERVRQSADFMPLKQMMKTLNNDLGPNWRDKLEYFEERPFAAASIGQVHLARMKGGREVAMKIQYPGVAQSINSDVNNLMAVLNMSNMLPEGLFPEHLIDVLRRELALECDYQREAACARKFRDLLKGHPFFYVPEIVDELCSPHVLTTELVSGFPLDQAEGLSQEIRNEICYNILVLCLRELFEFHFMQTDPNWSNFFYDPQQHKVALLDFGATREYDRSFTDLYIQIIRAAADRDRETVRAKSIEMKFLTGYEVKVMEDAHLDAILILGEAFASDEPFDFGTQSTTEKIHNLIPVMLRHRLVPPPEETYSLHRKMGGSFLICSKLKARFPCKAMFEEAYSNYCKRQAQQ
Sequence of UniProt Q13470 (whole entry, looked up): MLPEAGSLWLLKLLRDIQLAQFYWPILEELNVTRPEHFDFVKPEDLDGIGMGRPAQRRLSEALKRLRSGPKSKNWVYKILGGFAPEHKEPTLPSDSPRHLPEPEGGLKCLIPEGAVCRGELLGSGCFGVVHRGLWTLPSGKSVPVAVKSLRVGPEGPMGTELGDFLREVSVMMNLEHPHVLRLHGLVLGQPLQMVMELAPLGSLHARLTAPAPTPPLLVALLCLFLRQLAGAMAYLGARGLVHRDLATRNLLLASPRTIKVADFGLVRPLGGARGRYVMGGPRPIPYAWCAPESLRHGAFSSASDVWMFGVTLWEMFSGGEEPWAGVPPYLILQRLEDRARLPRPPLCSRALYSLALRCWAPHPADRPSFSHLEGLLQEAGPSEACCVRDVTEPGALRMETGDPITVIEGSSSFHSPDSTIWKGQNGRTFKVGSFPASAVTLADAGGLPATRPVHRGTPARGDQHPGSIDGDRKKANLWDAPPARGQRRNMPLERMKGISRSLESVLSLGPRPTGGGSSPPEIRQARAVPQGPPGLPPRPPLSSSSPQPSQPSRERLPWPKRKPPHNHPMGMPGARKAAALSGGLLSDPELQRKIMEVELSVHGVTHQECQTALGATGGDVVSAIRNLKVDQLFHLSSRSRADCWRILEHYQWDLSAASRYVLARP
Sequence of UniProt P11802 (whole entry, looked up): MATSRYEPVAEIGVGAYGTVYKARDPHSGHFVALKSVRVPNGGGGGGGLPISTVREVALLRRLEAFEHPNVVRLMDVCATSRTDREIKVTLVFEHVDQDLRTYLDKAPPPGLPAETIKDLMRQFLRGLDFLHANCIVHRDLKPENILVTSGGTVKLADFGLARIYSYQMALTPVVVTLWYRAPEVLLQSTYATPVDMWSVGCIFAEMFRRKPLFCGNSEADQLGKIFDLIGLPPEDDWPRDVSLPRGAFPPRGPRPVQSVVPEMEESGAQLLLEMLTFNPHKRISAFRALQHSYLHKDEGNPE

Block 1
Cell line: A-375
Tested at: 100 µM
Time: 36 h
COC(=O)c1ccc2c(c1)NC(=O)/C2=C(\Nc1ccc(N(C)C(=O)CN2CCN(C)CC2)cc1)c1ccccc1 gave a viability of 111%.
S=P(N1CC1)(N1CC1)N1CC1 gave a viability of 38.9%.
Nc1ccc(S(=O)(=O)Nc2ncccn2)cc1 has a viability of 101%.
COc1cc2c(cc1OC)[C@@H]1Cc3ccc(OC)c(OC)c3CN1CC2 has a viability of 87%.
CN1CCC(=C2c3ccccc3CCc3sccc32)CC1 gave a viability of -2.61% and -0.0513%.
COC1C(OC(N)=O)C(O)C(Oc2ccc3c(O)c(NC(=O)c4ccc(O)c(CC=C(C)C)c4)c(=O)oc3c2C)OC1(C)C (stereo not drawn) gave a viability of 84.3%.
CO/N=C1\CN(c2nc3c(cc2F)c(=O)c(C(=O)O)cn3C2CC2)CC1CN (stereo not drawn) gave a viability of 45.5%.
COc1cc2nc(N3CCN(C(=O)C4CCCO4)CC3)nc(N)c2cc1OC (stereo not drawn) has a viability of 57.6%.
CCOC(=O)[C@H](CCc1ccccc1)N[C@@H](C)C(=O)N1[C@H](C(=O)O)C[C@@H]2CCC[C@@H]21 has a viability of 105%.
NNc1nnc(NN)c2ccccc12 gave a viability of 61.1%.
For C[C@H](CCC(=O)O)[C@H]1CC[C@H]2[C@@H]3C(=O)C[C@@H]4CC(=O)CC[C@]4(C)[C@H]3CC(=O)[C@]12C, the viability was 110%.

Block 2
SMILES: Cc1nc(N2CC[C@@H](O)C2)ncc1-c1cc(C(F)(F)F)cc2[nH]ncc12
Tested at: 1 µM
The remaining binding was 100% (TNK1 (Homo sapiens, UniProt Q13470); binding, competition with immobilised ligand).
For DYRK2 (Homo sapiens, UniProt Q92630); binding, competition with immobilised ligand: remaining binding read 79%.
Cyclin-dependent kinase 4, with cyclin D1 (CDK4, Homo sapiens, UniProt P11802); binding, competition with immobilised ligand — remaining binding: 71%.
TLK2 (Homo sapiens, UniProt Q86UE8); cell-free assay, competition with immobilised ligand — remaining binding: 100%.
It gave 77% for remaining binding (AKT3 (Homo sapiens, UniProt Q9Y243); binding, competition with immobilised ligand).
For IKBKE (Homo sapiens, UniProt Q14164); binding, competition with immobilised ligand: remaining binding read 89%.
The remaining binding was 90% (BRSK2 (Homo sapiens, UniProt Q8IWQ3); binding, competition with immobilised ligand).
It gave 100% for remaining binding (FGR (Homo sapiens, UniProt P09769); cell-free assay, competition with immobilised ligand).
For Ribosomal protein S6 kinase alpha-4, N-terminal kinase domain (RPS6KA4, Homo sapiens, UniProt O75676); binding, competition with immobilised ligand: remaining binding read 84%.
The remaining binding was 58% (Tyrosine-protein kinase ABL1, phosphorylated (ABL1, Homo sapiens, UniProt P00519, F317L); binding, competition with immobilised ligand).
For PRKAA1 (Homo sapiens, UniProt Q13131); cell-free assay, competition with immobilised ligand: remaining binding read 89%.
The remaining binding was 100% (MAP4K1 (Homo sapiens, UniProt Q92918); binding, competition with immobilised ligand).
For FGFR3 (Homo sapiens, UniProt P22607); cell-free assay, competition with immobilised ligand: remaining binding read 100%.
PIK3CA (Homo sapiens, UniProt P42336, I800L); cell-free assay, competition with immobilised ligand — remaining binding: 66%.
It gave 85% for remaining binding (STK32A (Homo sapiens, UniProt Q8WU08); binding, competition with immobilised ligand).
CAMK4 (Homo sapiens, UniProt Q16566); binding, competition with immobilised ligand — remaining binding: 100%.
For MAP2K4 (Homo sapiens, UniProt P45985); binding, competition with immobilised ligand: remaining binding read 97%.
It gave 100% for remaining binding (CDC42BPG (Homo sapiens, UniProt Q6DT37); competition binding).
COQ8A (Homo sapiens, UniProt Q8NI60); cell-free assay, competition with immobilised ligand — remaining binding: 100%.
For CAMK1G (Homo sapiens, UniProt Q96NX5); cell-free assay, competition with immobilised ligand: remaining binding read 100%.
The remaining binding was 66% (NTRK3 (Homo sapiens, UniProt Q16288); cell-free assay, competition with immobilised ligand).

Block 3
Host: mouse
Sample: microsomes or S9
Tested at: 2 µM
Time: 0.5 h
Fc1cc(F)cc(-c2noc3ncnc(Nc4ccc(-c5ccno5)cc4)c23)c1 gave a remaining compound of 8.42%.
For Cc1ccc(CNc2ncc(-c3ccccc3F)c(-c3nccn3C)n2)cc1, the remaining compound was 5.85%.
For CC1(C)C=C(Br)c2ccnc(-c3ccc(S(C)(=O)=O)cc3F)c2O1, the remaining compound was 10%.
CCCc1nc(-c2ccc3ccccc3c2)cc2c1sc1ccccc12 gave a remaining compound of 72.2%.
With CC(C)=CCN1CCN(c2nc3ccccc3s2)CC1CCO (stereo not drawn) the remaining compound was 0.00328%.
Cn1nc2c(c1C(=O)N1CCC(C3CCCCN3S(C)(=O)=O)CC1)CCCC2 (stereo not drawn) has a remaining compound of 4.77%.
For COc1cc2c(Nc3cc(Cl)cc(Cl)c3)ncnc2cc1O, the remaining compound was 4.64%.
With Nc1ccc(CCNC[C@H](O)c2ccccc2)cc1 the remaining compound was 94%.
The remaining compound of Fc1ccc(-c2c(-n3cnnc3)nc3ccccc3c2Cl)cc1 is reported as 88.3%.
Cc1cc(NCc2cc(-c3cnn(C)c3C)no2)c(Cl)cc1F gave a remaining compound of 1.67%.
For Cc1cc(S(=O)(=O)N[C@H]2CC[C@H]2NC2CCN(C(C)C)CC2)c(C)s1, the remaining compound was 2.3%.
The remaining compound of Cc1cc(C(C)(C)C)cc(C)c1CS(=O)(=O)CCn1cccn1 is reported as 2.45%.
COc1c(-c2ccc(F)c(F)c2)c(-n2cncn2)nc2ccc(F)cc12 gave a remaining compound of > 100%.
O=C1COc2ccc(-c3cc4ccccn4c3)cc2N1 has a remaining compound of 0%.
COc1cc(=O)[nH]cc1C(=O)N1CCOC(c2nc(C)cs2)C1 (stereo not drawn) has a remaining compound of 89.4%.
For Cc1ccccc1-c1nc2ccccc2cc1C(C)n1c(=O)n(-c2ccc(O)c(F)c2)c2cnc(N)nc21 (stereo not drawn), the remaining compound was 5.82%.
For OCCN(Cc1ccccc1)CC(O)COc1c(F)cc(Br)cc1F (stereo not drawn), the remaining compound was 80.7%.
CCN(CCCNc1nc(-c2ccccc2)no1)c1ccccc1 has a remaining compound of 0.389%.
For COc1cc(Nc2ncnc3cc(OC)c(OCC4CN(C(=O)OC(C)(C)C)CCO4)cc23)ccc1Cl (stereo not drawn), the remaining compound was 8.59%.

Block 4
Target: Testis-specific serine/threonine-protein kinase 1 (TSSK1B, Homo sapiens, UniProt Q9BXA7)
Observed: enzyme activity
Action: inhibitor
Tested at: 0.5 µM
Baseline: control
Residues (Q9BXA7 1-367): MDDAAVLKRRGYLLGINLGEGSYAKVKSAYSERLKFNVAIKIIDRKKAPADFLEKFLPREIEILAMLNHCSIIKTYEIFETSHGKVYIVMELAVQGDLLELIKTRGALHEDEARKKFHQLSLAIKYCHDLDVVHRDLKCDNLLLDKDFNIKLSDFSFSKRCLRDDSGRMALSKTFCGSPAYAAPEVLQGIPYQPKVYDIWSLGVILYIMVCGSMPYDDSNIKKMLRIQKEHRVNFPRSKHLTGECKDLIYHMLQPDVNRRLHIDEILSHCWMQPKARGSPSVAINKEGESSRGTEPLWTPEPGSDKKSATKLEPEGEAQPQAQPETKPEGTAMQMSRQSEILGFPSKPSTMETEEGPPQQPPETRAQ
C[C@@H]1CCN(C(=O)CC#N)C[C@@H]1N(C)c1ncnc2[nH]ccc12 gave a remaining activity of 85.1%.
With CN([C@@H](Cc1ccc(OS(=O)(=O)c2cccc3cnccc23)cc1)C(=O)N1CCN(c2ccccc2)CC1)S(=O)(=O)c1cccc2cnccc12 the remaining activity was 95.4%.
For CCN(CC)C(=O)c1ccc(Nc2nc(OCC3CCCCC3)c3[nH]cnc3n2)cc1, the remaining activity was 15.3%.
O=c1cc(-c2cccc3c2Sc2ccccc2S3)oc(N2CCOCC2)c1 gave a remaining activity of 107%.
For O=C1c2ccccc2-c2n[nH]c3cccc1c23, the remaining activity was 73.4%.
COc1cc2c(cc1OC)-c1[nH]nc(Nc3cccc(F)c3)c1C2 gave a remaining activity of 71.7%.
CN(C)C[C@H]1CCn2c(c(C3=C(c4cn(C)c5ccccc45)C(=O)NC3=O)c3ccccc32)C1 has a remaining activity of 104%.
The remaining activity of Cc1nc2cc3nc(-c4cccs4)cnc3cc2n1C is reported as 91.3%.
COc1cc2ncnc(Nc3ccc(O)c(Br)c3)c2cc1OC has a remaining activity of 84.7%.
For c1ccc(-c2cnc(Nc3ccc(OCCN4CCCC4)cc3)s2)cc1, the remaining activity was 96.5%.
With Cc1cn(-c2cc(NC(=O)c3ccc(C)c(Nc4nccc(-c5cccnc5)n4)c3)cc(C(F)(F)F)c2)cn1 the remaining activity was 77.7%.
COc1cc2ncnc(Nc3cccc(Cl)c3)c2cc1OC gave a remaining activity of 95.7%.
O=C1C(Cl)=C(N2C(=O)CCC2=O)C(=O)c2ccccc21 gave a remaining activity of 104%.
O=C(Nc1cccc(Nc2nccc(Nc3cccc(C(F)(F)F)c3)n2)c1)C1CC1 gave a remaining activity of 100%.
The remaining activity of c1ccc(-c2[nH]ncc2-c2ccnc3ccccc23)nc1 is reported as 104%.
The remaining activity of Cc1cc2ncc(-c3ccccc3)nc2cc1C is reported as 113%.
The remaining activity of O=C(NC(NC(=S)Nc1ccc(F)c([N+](=O)[O-])c1)C(Cl)(Cl)Cl)C(c1ccccc1)c1ccccc1 (stereo not drawn) is reported as 93.4%.
For N#C/C(=C\c1ccc(O)c(O)c1)C(=O)NCc1ccccc1, the remaining activity was 90.2%.
CCN(CC)CCNC(=O)c1c(C)[nH]c(/C=C2\C(=O)Nc3ccc(Cl)cc32)c1C gave a remaining activity of 8.45%.
Cn1nc2c3c(cccc31)C(=O)c1ccccc1-2 has a remaining activity of 98.4%.
For Nc1cccc(-c2cc3c(Oc4cccc(O)c4)ncnc3[nH]2)c1, the remaining activity was 91.1%.
N#Cc1c(NC(=O)c2cccc3ccccc23)sc2c1CCCC2 has a remaining activity of 94.9%.
CCN(CC)CCNC(=O)c1c(C)[nH]c(/C=C2\C(=O)Nc3ccc(F)cc32)c1C gave a remaining activity of 20.7%.
For Ic1cccc(CSc2nnc(-c3ccncc3)o2)c1, the remaining activity was 97.6%.
